Published values of several laboratories.
Every numbered part comes from another study and shows a few of its results, in no order.
UniProt P08588, sequence (whole entry, looked up): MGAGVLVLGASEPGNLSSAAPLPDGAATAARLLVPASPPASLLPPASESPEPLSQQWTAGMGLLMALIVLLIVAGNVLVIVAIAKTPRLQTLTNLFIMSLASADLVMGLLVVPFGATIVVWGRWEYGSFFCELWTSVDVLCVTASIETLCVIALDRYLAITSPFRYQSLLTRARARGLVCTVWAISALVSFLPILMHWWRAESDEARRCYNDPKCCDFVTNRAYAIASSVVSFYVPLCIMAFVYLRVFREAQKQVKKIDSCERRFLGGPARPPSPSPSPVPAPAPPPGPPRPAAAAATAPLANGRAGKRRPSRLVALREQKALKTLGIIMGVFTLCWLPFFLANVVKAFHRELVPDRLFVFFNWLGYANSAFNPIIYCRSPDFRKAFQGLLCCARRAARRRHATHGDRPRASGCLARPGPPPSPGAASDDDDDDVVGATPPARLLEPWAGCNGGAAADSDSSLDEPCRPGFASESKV

Sample 1 — technique: protein-binding microarray; molecule type: hairpin DNA; matrix: in vitro; tested at: not given; baseline: not given; direction: higher = stronger binding; endpoint: median fluorescence; constant ends, left off below: GAGGCCG … CGGCCTCACACTC
Target: Cyclic AMP-responsive element-binding protein 1, full length (CREB1, Homo sapiens, UniProt P16220, residues 1-327)
UniProt P16220, sequence (whole entry, looked up): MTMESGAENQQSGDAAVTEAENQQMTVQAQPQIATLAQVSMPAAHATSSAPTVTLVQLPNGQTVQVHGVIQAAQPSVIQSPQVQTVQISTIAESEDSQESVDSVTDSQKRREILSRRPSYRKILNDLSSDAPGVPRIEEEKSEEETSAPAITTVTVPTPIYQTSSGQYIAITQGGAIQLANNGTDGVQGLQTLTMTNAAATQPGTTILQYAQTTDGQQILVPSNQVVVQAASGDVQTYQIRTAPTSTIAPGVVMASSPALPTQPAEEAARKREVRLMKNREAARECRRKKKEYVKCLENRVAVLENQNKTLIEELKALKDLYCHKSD
Notes: whole hairpin DNA, median over replicate spots
Oligonucleotide = GCTGACGTCGGCCTCCTGGCCGACGTCAGC (5mC at 28); value = 7470 a.u.
Oligonucleotide = ACGTCGTCGTGCCTCCTGGCACGACGACGT (5mC at 9 15 29 35); value = 3120 a.u.
Oligonucleotide = GCTGACGTCAGCCTCCTGGCTGACGTCAGC (5mC at 13); value = 5190 a.u.
Oligonucleotide = GCCGACGTCAGCCTCCTGGCTGACGTCGGC (5mC at 34); value = 4100 a.u.
Oligonucleotide = ACGCGGTCGTGCCTCCTGGCACGACCGCGT (5mC at 9 11 15 29 33 35); value = 2790 a.u.
Oligonucleotide = ACGACGTCCTGCCTCCTGGCAGGACGTCGT (5mC at 9 15 35); value = 3040 a.u.
Oligonucleotide = GCTCACGTCAGCCTCCTGGCTGACGTGAGC; value = 4230 a.u.
Oligonucleotide = ACGACATCGTGCCTCCTGGCACGATGTCGT (5mC at 9 15 29 35); value = 2940 a.u.

Sample 2 — Molecule: DTFDEAFLAAVRSHQG; molecule type: peptide; notes: peptide tiling library; direction: direction not given; endpoint: enrichment score
target or system = Saccharomyces cerevisiae; effect on = pheromone growth arrest; technique = yeast competitive growth sequencing; strain = no Cln2 overexpression; value = 0.262
target or system = human cyclin A2; technique = competitive growth deep sequencing; organism = Saccharomyces cerevisiae; strain = cyclin A2-Cln2 fusion strain; value = 1.5
target or system = Saccharomyces cerevisiae; effect on = binding; technique = competitive growth deep sequencing; strain = cyclin E1-Cln2 fusion strain; value = 2.24

Sample 3 — technique: protein-binding microarray; molecule type: double-stranded DNA, one strand shown; matrix: in vitro; tested at: not given; direction: higher = stronger binding; endpoint: E-score
Target: Protein C-ets-1 (ETS1, Homo sapiens, UniProt P14921, residues 1-441, Y397A, full length assumed)
UniProt P14921, sequence (whole entry, unmodified, looked up): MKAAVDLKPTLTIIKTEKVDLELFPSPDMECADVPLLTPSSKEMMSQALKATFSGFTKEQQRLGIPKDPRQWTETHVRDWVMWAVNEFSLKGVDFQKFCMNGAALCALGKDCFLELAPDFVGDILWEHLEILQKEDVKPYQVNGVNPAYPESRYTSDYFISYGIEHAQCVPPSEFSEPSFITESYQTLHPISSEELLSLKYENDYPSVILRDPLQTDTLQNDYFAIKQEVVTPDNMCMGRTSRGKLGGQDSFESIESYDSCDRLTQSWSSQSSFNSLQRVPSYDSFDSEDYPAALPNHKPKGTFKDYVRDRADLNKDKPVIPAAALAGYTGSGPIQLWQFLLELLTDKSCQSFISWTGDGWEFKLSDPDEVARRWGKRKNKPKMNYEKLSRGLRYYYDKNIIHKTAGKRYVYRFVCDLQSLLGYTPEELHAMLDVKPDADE
Notes: k-mer, scored over probes, only values ≥0.25
Oligonucleotide = AGCAAACG; value = 0.32
Oligonucleotide = ATCGTACA; value = 0.263
Oligonucleotide = TATTGCCA; value = 0.277
Oligonucleotide = CCGCAACA; value = 0.26
Oligonucleotide = CCGGAAGC; value = 0.466
Oligonucleotide = GACAAAAC; value = 0.407
Oligonucleotide = GTTGCCAA; value = 0.354
Oligonucleotide = ACGTCGCC; value = 0.265

Single results of other studies
Substance = NDUFB4 (Homo sapiens, UniProt O95168); target or system = UQCR10 (Homo sapiens, UniProt Q9UDW1); technique = cross-linking MS; matrix = cells; with = BSPNO; endpoint = cross-linked residues; value = K7 to A2
Substance = C[C@H](Cc1ccc2c(c1)OC(C(=O)O)(C(=O)O)O2)NC[C@H](O)c1cccc(Cl)c1; target or system = ADRB1 (Homo sapiens, UniProt P08588); mode = agonist; endpoint = Emax; value = 86.8%

Repeated from above (sample 3):
Oligonucleotide = AGCAAACG; value = 0.32
Oligonucleotide = ATCGTACA; value = 0.263
Oligonucleotide = TATTGCCA; value = 0.277
